Results of several laboratories.
Compare with care: the assays were run in different laboratories. Numbers after ± are the reported error.

Cc1ncsc1-c1ccc(C(C)NC(=O)C2CC(O)CN2C(=O)C(NC(=O)CCCCCCCCCCN2CCCC(Nc3ncc(Cl)c(Nc4ccccc4S(=O)(=O)C(C)C)n3)C2)C(C)(C)C)cc1 (centres unmarked)
log2 fold change (22Rv1; RNA-seq, measured: PTCH1 mRNA; concentration not given; relative to: DMSO): -1.11

CCCC[N+]1=c2cc3c4cc2[O][Mn-2]1(=[C]=O)(=[C]=O)(=[C]=O)[n+]1ccc(cc1)C(=O)OCCOC(=O)c1cc[n+](cc1)[Mn-2](=[C]=O)(=[C]=O)(=[C]=O)([O]3)[N+]=4CCCC
IC50 (HEK293; cell growth, MTT; 48 h, LED photolysed 1 h): > 50 µM

Cc1nc(Nc2ccc3c(c2)/C(=C/c2c[nH]c4ccccc24)C(=O)N3)c2ccccc2n1
IC50 (H22; cell growth or viability, MTT): 0.96 µM

C[C@H](c1ccccc1)N1C(=O)C2=Nc3ccc(F)cc3CN2C1=S
IC50 (CCRF-CEM; cell growth or viability, resazurin; 72 h): 0.516 µM

CCCC(CCC)C(=O)[O][Pt]([NH2])([NH2])([Cl])([Cl])[O]C(C)=O
IC50 (BCPAP; cell growth or viability, MTT; 72 h): 3.06 µM

Cn1ncc(-c2ccc3c(=O)[nH]nc(CN)c3c2)c1-c1c(F)c(Cl)cc(OC2CC2)c1C#N
IC50 (SR; cell viability, inhibitor, CellTiter-Glo; 120 h, baseline-subtracted): 0.05 µM

CNS(=O)(=O)Nc1nccc(Cc2c(C)c3ccc(Oc4ncccc4F)cc3oc2=O)c1F
IC50 (NCI-H526; cell viability; 7 days): > 1 µM

COc1ccc(CC[C@H]2OC(=O)[C@@H]3CCCCN3C(=O)C(=O)C(C)(C)COC(=O)C=CCCN(C)C(=O)[C@H](CC(C)C)N(C)C(=O)[C@H]3CCCN3C(=O)[C@H](Cc3ccc([N+](=O)[O-])cc3)NC(=O)[C@H](c3ccccc3)NC(=O)CCC(=O)Nc3cccc2c3)cc1OC
IC50 (HUVEC; thymidine uptake, inhibitor): 0.13 ± 0.025 µM

N#Cc1c(N)nc2c(c1-c1ccccc1)Cc1cc(O)ccc1-2
IC50 (HuT78; cell growth or viability, ATP luminescence): 11.5 µM

C[C@@H](c1ccccc1)N1C(=O)C2=Nc3ccccc3CN2C1=S
IC50 (CCRF-CEM; resazurin; 72 h): 0.48 ± 0.03 µM

COc1ccc(CC[C@H]2OC(=O)[C@@H]3CCCCN3C(=O)C(=O)C(C)(C)COC(=O)C=CCCN(C)C(=O)[C@@H](C)NC(=O)[C@@H](Cc3ccccc3)N(C)C(=O)[C@@H]3CCCN3C(=O)[C@H](CC(C)C)N(C)C(=O)CCC(=O)Nc3cccc2c3)cc1OC
IC50 (HUVEC; thymidine uptake, inhibitor): 1.5 ± 0.3 µM

Cc1ccc2c(Br)cc(Br)c([O-])c2n1.Cc1ccc2c(Br)cc(Br)c([O-])c2n1.[Co+2].c1ccc(-c2ccccn2)nc1
IC50 (HL-7702 normal hepatocytes; cell viability, MTT; 48 h): 85.02 ± 0.45 µM

NCCOc1cc(NC(=O)c2cc(OCc3cn([C@H]4O[C@@H](CO)[C@H](O)[C@@H](O)[C@@H]4O)nn3)cc(C(=O)Nc3cc(OCCN)c4ccccc4n3)n2)nc2ccccc12
IC50 (U2OS; cell growth or viability, ATP luminescence; 72 h): > 40 µM

CN1CCCNC(=O)c2cccc(c2)C(=O)NCCCN(C)CCCNc2cccc3c2C(=O)c2cccc(c2C3=O)NCCC1
log2 fold change (SAS; RNA-Seq, measured: UBE3C mRNA; 1 µM, 6 h; relative to: untreated cells): -0.743

CC(C)CCC[C@@H](C)[C@H]1CC[C@H]2[C@@H]3CC=C4C[C@@H](OC(=O)NCCCN(C)CCCNC(=O)c5cc6c(=O)c7cc(C(C)C)ccc7oc6nc5N)CC[C@]4(C)[C@H]3CC[C@]12C
IC50 (ARPE-19; cytotoxicity, CCK-8; 48 h): > 100 µM

NC(=O)c1ccc(-c2ccccc2Cl)c2c3c([nH]c12)CCC(N)C3 (centres unmarked)
IC50 (HGC-27; cell growth or viability; 96 h): 0.0221 µM

COc1ccc(CC[C@H]2OC(=O)[C@@H]3CCCCN3C(=O)C(=O)C(C)(C)COC(=O)C=CCCN(C)C(=O)[C@H](Cc3ccccc3)N(C)C(=O)[C@H]3CCCN3C(=O)[C@H](Cc3ccccc3)N(C)C(=O)[C@H](Cc3ccccc3)NC(=O)CCC(=O)Nc3cccc2c3)cc1OC
IC50 (HUVEC; thymidine uptake, inhibitor): > 20 µM

Cc1[nH]c(=S)[nH]c(=O)c1/N=N/c1nnc(S)s1
IC50 (Vero; MTT; 72 h): 17.1 ± 2.54 µg/mL

COC[C@H](C)N1C(=O)C2=Nc3ccccc3CN2C1=S
IC50 (CCRF-CEM; cell growth or viability, resazurin; 72 h): 11.2 µM

O=C1C(Cl)=C(Cl)C(=O)c2c1cccc2[N+](=O)[O-]
IC50 (MOLT-3; cell growth or viability, XTT): 79.8 µM

CCc1ccc(/N=C2\C(=O)N(Cc3ccc([N+](=O)[O-])cc3)c3ccccc32)cc1
IC50 (L02; cell growth or viability, MTT; 48 h): 19.2 µM

CCOc1cncc(-c2ccc(NC(=O)C3(c4ccnc(NS(=O)(=O)C5CC5)n4)CCOCC3)nc2)n1
IC50 (MOLT-3; cell growth or viability, ATP luminescence; 72 h): 0.017 µM

Cc1cnc2nc1Nc1cc(F)cc(c1)COC/C=C/COCc1cc(ccc1OCCN1CCCC1)N2
IC50 (HEL 92.1.7 JAK2 V617F; cell growth, CCK-8): 4.54 µM

CC(C)c1ccc(N(C)c2ccc3c(c2)OCC[C@H]3CNc2cnccc2C(=O)O)cc1
IC50 (NCI-H1623; cell growth or viability, ATP luminescence; 7 days): 0.0189 µM

O=C1/C(=N\c2ccc(Cl)cc2Br)c2ccccc2N1Cc1cccc(Cl)c1 (mixture of isomers)
IC50 (L02; cell growth or viability, MTT; 48 h): 16.7 µM

O=C1C2=Nc3ccccc3CN2C(=S)N1c1ccccc1
IC50 (CCRF-CEM; cell viability, resazurin; 72 h): inactive

Nc1ncc(-c2cc(-c3cnn(CC(F)(F)F)c3)ncc2F)nc1C(=O)NC1CNCC(F)C1 (centres unmarked)
remaining binding (DMPK; KINOMEscan; 1 µM; relative to: DMSO control): 29%

C=CC(=O)N1CCCC(n2c(=O)c3ncccc3n(Cc3ccc(Oc4ccccc4)cc3)c2=O)C1 (centres unmarked)
IC50 (L-1236; cell growth or viability, MTT; 72 h): 9 µM

COc1ccc(CC[C@H]2OC(=O)[C@@H]3CCCCN3C(=O)C(=O)C(C)(C)COC(=O)C=CCCN(C)C(=O)[C@H](CC(C)C)N(C)C(=O)[C@@H]3CCCN3C(=O)[C@@H](Cc3ccccc3)N(C)C(=O)[C@@H](Cc3ccccc3)NC(=O)CCC(=O)Nc3cccc2c3)cc1OC
IC50 (HUVEC; thymidine uptake, inhibitor): > 20 µM

C[C@H](c1ccccc1)N1C(=O)C2=Nc3ccc(Cl)cc3CN2C1=S
IC50 (CCRF-CEM; cell growth or viability, resazurin; 72 h): 0.375 µM

Cn1ncc2cc(-c3cncc(Cl)c3N3CCC4(CCNC4=O)CC3)ccc21
IC50 (7dF3; WNT reporter gene, inhibitor): 0.01 ± 0.007 µM

COC1CN([C@H]2CC[C@H]([C@@]3(C)Oc4c(Cl)cc(C(=O)NCc5c(SC)cc(C)[nH]c5=O)c(C)c4O3)CC2)C1
log2 fold change (RNA-seq, measured: RUNX1T1; human, whole blood; dose not given, 24 h; relative to: pretreatment baseline): 5.67

Cc1ccc(-c2ccc(C)cn2)nc1.[Co+2].[O-]c1c(I)cc(Cl)c2cccnc12.[O-]c1c(I)cc(Cl)c2cccnc12
IC50 (HL-7702 normal hepatocytes; cell viability, MTT; 48 h): 63.89 ± 0.49 µM

CCNC(=S)NN=Cc1ccc([N+](=O)[O-])o1
IC50 (IMR-90; cell growth or viability, resazurin): > 100 µM

Cc1ccc([N+](=O)[O-])cc1S(=O)(=O)N(C)/N=C/c1cnc2ccc(Br)cn12
IC50 (SR; cell growth or viability): < 0.001 µM

CC[C@H](C)[C@H](NC(=O)[C@H](CC(=O)O)NC(=O)[C@H](Cc1ccccc1)NC(=O)[C@H]1CCC[C@@H]1NC(=O)CN)C(=O)N[C@H](CC(=O)N[C@@H](CCCCN)C(=O)N[C@@H](CCCCN)C(=O)N[C@H]1CCC[C@@H]1C(=O)N[C@@H](C)C(=O)N[C@@H](CCCCN)C(=O)N[C@@H](CO)C(=O)N[C@H](CC(N)=O)Cc1ccccc1)[C@@H](C)CC
IC50 (HUVEC; cytotoxicity): 52.1 µg/mL

CCN(CC)c1ccc2nc3ccc(NCCCN(C)CCCNC(=O)O[C@H]4CC[C@@]5(C)C(=CC[C@H]6[C@@H]7CC[C@H]([C@H](C)CCCC(C)C)[C@@]7(C)CC[C@@H]65)C4)cc3[n+](-c3ccccc3)c2c1
IC50 (ARPE-19; cytotoxicity, CCK-8; 48 h): 1.69 ± 0.32 µM

O=C(CCCCCONC(=O)c1nc(-c2ccc([N+](=O)[O-])cc2)cs1)NO
IC50 (neonatal foreskin fibroblasts; cytotoxicity, sulforhodamine B; 72 h): 3.52 µM

COc1ccc(CC[C@H]2OC(=O)[C@@H]3CCCCN3C(=O)C(=O)C(C)(C)COC(=O)C=CCCN(C)C(=O)[C@H](Cc3ccccc3)NC(=O)[C@H](Cc3ccccc3)N(C)C(=O)[C@H]3CCCN3C(=O)[C@H](CC(C)C)N(C)C(=O)CCC(=O)Nc3cccc2c3)cc1OC
IC50 (HUVEC; thymidine uptake, inhibitor): > 20 µM

C=CC(=O)Nc1cccc(Cn2ncc3cnc(Nc4cnn(CCOC)c4)nc32)c1
binding (human CAMK1B; KINOMEscan; 100 nM; relative to: control): 92%

Cc1ccc2c(Cl)cc(Cl)c([O-])c2n1.Cc1ccc2c(Cl)cc(Cl)c([O-])c2n1.[Co+2].c1cnc2c(c1)ccc1cccnc12
IC50 (HL-7702 normal hepatocytes; cell viability, MTT; 48 h): 71.25 ± 0.22 µM

Cc1nc(Nc2ccc3c(c2)/C(=C/c2ccccc2)C(=O)N3)c2ccccc2n1
IC50 (H22; cell growth or viability, MTT): 6.67 µM

O=C(CCCCCONC(=O)c1nc(-c2ccncc2)cs1)NO
IC50 (neonatal foreskin fibroblasts; cytotoxicity, sulforhodamine B; 72 h): 37.2 µM

CC[C@H](C)[C@H]1C(=O)N(C)CCC=CC(=O)OCC(C)(C)C(=O)C(=O)N2CCCC[C@H]2C(=O)O[C@H](CCc2ccc(OC)c(OC)c2)c2cccc(c2)NC(=O)CCC(=O)N[C@@H](Cc2ccccc2)C(=O)N(C)[C@@H](Cc2ccccc2)C(=O)N2CCC[C@@H]2C(=O)N1C
IC50 (HUVEC; thymidine uptake, inhibitor): 1.2 ± 0.2 µM

CC[C@H](C)[C@H](NC(=O)[C@H](CCCCN)NC(=O)[C@H]1CCC[C@@H]1NC(=O)[C@H](CC(C)C)NC(=O)CN)C(=O)N[C@H](CC(=O)N[C@@H](CCCCN)C(=O)N[C@@H](CCCCN)C(=O)N[C@H]1CCC[C@@H]1C(=O)N[C@@H](C)C(=O)N[C@@H](CCCCN)C(=O)N[C@@H](CO)CC(=O)N[C@@H](Cc1ccccc1)C(N)=O)[C@@H](C)CC
IC50 (HUVEC; cytotoxicity): 122 µg/mL

O=C(CCc1ccco1)N1C(=O)C2(NC(c3ccc(F)cc3)C3(C(=O)Nc4ccccc43)N2Cc2ccc(F)cc2)c2ccccc21 (centres unmarked)
IC50 (L02; cell growth or viability, MTT; 48 h): > 100 µM

COc1ccc(CC[C@H]2OC(=O)[C@@H]3CCCCN3C(=O)C(=O)C(C)(C)COC(=O)C=CCCN(C)C(=O)[C@H](CC(C)C)N(C)C(=O)[C@H]3CCCN3C(=O)[C@H](CC(C)C)N(C)C(=O)[C@H](Cc3ccccc3)NC(=O)CCC(=O)Nc3cccc2c3)cc1OC
IC50 (HUVEC; thymidine uptake, inhibitor): 0.787 ± 0.15 µM

Some of these lines once more:
NCCOc1cc(NC(=O)c2cc(OCc3cn([C@H]4O[C@@H](CO)[C@H](O)[C@@H](O)[C@@H]4O)nn3)cc(C(=O)Nc3cc(OCCN)c4ccccc4n3)n2)nc2ccccc12
IC50 (U2OS; cell growth or viability, ATP luminescence; 72 h): > 40 µM

O=C(CCCCCONC(=O)c1nc(-c2ccncc2)cs1)NO
IC50 (neonatal foreskin fibroblasts; cytotoxicity, sulforhodamine B; 72 h): 37.2 µM

COc1ccc(CC[C@H]2OC(=O)[C@@H]3CCCCN3C(=O)C(=O)C(C)(C)COC(=O)C=CCCN(C)C(=O)[C@H](Cc3ccccc3)N(C)C(=O)[C@H]3CCCN3C(=O)[C@H](Cc3ccccc3)N(C)C(=O)[C@H](Cc3ccccc3)NC(=O)CCC(=O)Nc3cccc2c3)cc1OC
IC50 (HUVEC; thymidine uptake, inhibitor): > 20 µM

CCCC(CCC)C(=O)[O][Pt]([NH2])([NH2])([Cl])([Cl])[O]C(C)=O
IC50 (BCPAP; cell growth or viability, MTT; 72 h): 3.06 µM
